{"data": "Experimental data from different studies", "note": "Each numbered part is a random draw from the data of one study; scales do not carry over between parts."}
{"data": "Block 1", "target": "Sal-like protein 4, full length isoform B (SALL4, Homo sapiens, UniProt Q9UJQ4-2, residues 1-616)", "technique": "universal PBM", "molecule type": "double-stranded DNA, one strand shown", "sample": "in vitro", "concentration": "not given", "notes": "8-mer, flanks averaged, mean of replicates", "reading": "higher = stronger binding", "Target sequence (chain)": "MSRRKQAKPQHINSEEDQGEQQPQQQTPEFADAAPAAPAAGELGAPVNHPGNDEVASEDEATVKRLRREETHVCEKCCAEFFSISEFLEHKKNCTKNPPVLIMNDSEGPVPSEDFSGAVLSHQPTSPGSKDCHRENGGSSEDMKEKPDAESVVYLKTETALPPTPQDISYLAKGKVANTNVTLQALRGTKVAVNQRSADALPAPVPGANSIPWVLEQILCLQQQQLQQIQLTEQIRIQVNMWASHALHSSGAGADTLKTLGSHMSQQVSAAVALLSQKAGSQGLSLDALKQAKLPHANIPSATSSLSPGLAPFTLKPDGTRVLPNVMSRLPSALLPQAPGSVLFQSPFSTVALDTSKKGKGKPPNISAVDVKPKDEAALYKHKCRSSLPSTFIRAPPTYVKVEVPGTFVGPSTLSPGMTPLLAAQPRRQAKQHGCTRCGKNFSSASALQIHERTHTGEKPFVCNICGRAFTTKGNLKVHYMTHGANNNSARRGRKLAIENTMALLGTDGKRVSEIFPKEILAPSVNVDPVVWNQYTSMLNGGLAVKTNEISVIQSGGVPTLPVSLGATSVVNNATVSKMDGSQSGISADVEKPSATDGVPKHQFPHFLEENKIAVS"}
{"Oligonucleotide": "ACTCGGGA", "E-score": -0.17}
{"Oligonucleotide": "ACGGACAG", "E-score": -0.128}
{"Oligonucleotide": "GATGGGCC", "E-score": -0.344}
{"Oligonucleotide": "AAAAGTAC", "E-score": 0.184}
{"Oligonucleotide": "ATGCTTAA", "E-score": 0.206}
{"Oligonucleotide": "GCTGGAAC", "E-score": -0.125}
{"Oligonucleotide": "CACACGGA", "E-score": -0.16}
{"Oligonucleotide": "AGTAAGAG", "E-score": 0.0157}
{"Oligonucleotide": "AACTCCTG", "E-score": -0.0815}
{"Oligonucleotide": "AAACTCGC", "E-score": -0.0906}
{"Oligonucleotide": "CCATCCAC", "E-score": -0.184}
{"Oligonucleotide": "AGAGTAAC", "E-score": -0.111}
{"Oligonucleotide": "AGCCGACA", "E-score": -0.23}
{"Oligonucleotide": "TGCAGTAA", "E-score": 0.111}
{"Oligonucleotide": "AGTTCGCA", "E-score": -0.126}
{"Oligonucleotide": "AGGTCACC", "E-score": -0.212}
{"Oligonucleotide": "CGCCGTTC", "E-score": -0.182}
{"Oligonucleotide": "CAGCGGCG", "E-score": -0.161}
{"Oligonucleotide": "CACTGGAC", "E-score": -0.101}
{"Oligonucleotide": "CAGCTTGC", "E-score": -0.083}
{"Oligonucleotide": "ACCCTAAA", "E-score": -0.0699}
{"Oligonucleotide": "ACGAAGGA", "E-score": 0.0389}
{"Oligonucleotide": "ATCTGCCC", "E-score": -0.165}
{"Oligonucleotide": "CATCCTAC", "E-score": -0.0233}
{"Oligonucleotide": "GAGAGATC", "E-score": -0.125}
{"data": "Block 2", "target": "RNA binding protein fox-1 homolog 2, RRM domain, GST-SBP tag (RBFOX2, Homo sapiens, UniProt O43251-10, residues 100-194)", "technique": "RNA Bind-n-Seq", "molecule type": "RNA", "sample": "in vitro", "concentration": "365 nM", "notes": "natural RNA segment, single round, ends assumed", "reference": "no-protein control", "reading": "higher = stronger binding", "all sequences stand within": "GGGAGUUCUACAGUCCGACGAUC … UGGAAUUCUCGGGUGCCAA", "Construct (chain)": "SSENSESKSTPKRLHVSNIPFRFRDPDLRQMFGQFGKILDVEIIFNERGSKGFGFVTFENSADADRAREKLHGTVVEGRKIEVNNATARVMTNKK"}
{"Oligonucleotide": "CUCGUACGCAGGCAGAUGACACCUUAUGCCAACAGGGACGCCUGUGAGGCCGAGACCUUGAUGGGAAGAGGAUGCUCCCUUGUUACAAAUAAAGAAGGGCAGUGUGAACC", "RBNS enrichment (R)": 1.24}
{"Oligonucleotide": "AGCCUUCACAAGCAUGAUAAACCCUCCCUGUUGUGUAUAGUAACGGUCUCAUUUUAUAGUCCACCUUUAAAACACAUCUCUACCUGGUGAAAAGUCAUCACAAGACUCCU", "RBNS enrichment (R)": 0.463}
{"Oligonucleotide": "AUUAACUUAAAAAAAUAUACACUGCUUCCCAUAAACUGCUAGUUCAUCUCUCGGUACAAAGGAGUUACUAUCAUAUAAAGACUCAUCUGAAAGAAUUGUUAAUGAAACCU", "RBNS enrichment (R)": 0.319}
{"Oligonucleotide": "CGUGCACCACCACCACCAGACUUUUUGUUUUGUUUCUUAAGUCAGAGUUUCUCUGUGUAGCUUUGGUUGUCCUGGAACUCACUCUGUAGACCAGGCCAGCCUUGAACUAA", "RBNS enrichment (R)": 0.572}
{"Oligonucleotide": "UGAGAACAGAGGUCAGACACAGCUGCGUAACAUCCAUCCUGCUACAACUCUUCCACCCCAAACAAAAGGGCUCAGGCUACACACGACCAUGAUUUAUGUUUUCAGGGGAU", "RBNS enrichment (R)": 0.446}
{"Oligonucleotide": "UUCAAGCCUUAGGAACUGGCAGACGGAACUGUUUCCAUCCACCAACCCCCAGGGUAUCAACCACUUUUUUGCAGCUUUUACGGUUCAAACCUAUCAAACUCUACAAAUAA", "RBNS enrichment (R)": 0.238}
{"Oligonucleotide": "AAGGAUGUAGCUGCUGCUUGUCCUGUUCAAGUUGCUGGAGCAGGGGUCAUGUGAGGCCAGGCCUGUAGCUCCUACCUGGGGCCUAUUUCUACUUUCAUUUUGUAUUUCUG", "RBNS enrichment (R)": 0.701}
{"Oligonucleotide": "AUUUUCACGGGUGUGGGCACAUGGGUGUGGCACCUGGACGUGUGCAGCAUGUGGCGGUCUGUGUGAAGCCACCGUGCUUCUCUUUGGGGGGCCGCGAGAUCUAGCAUCUC", "RBNS enrichment (R)": 6.65}
{"data": "Block 3", "target": "RING finger protein unkempt homolog, zinc fingers 1-6, GST-SBP tag (UNK, Homo sapiens, UniProt Q9C0B0, residues 30-357)", "technique": "RNA Bind-n-Seq", "molecule type": "RNA", "sample": "in vitro", "concentration": "not given", "notes": "RNA with constant flanks, human-mouse chimeric sites, ends assumed", "reference": "input RNA pool", "reading": "higher = stronger binding", "all sequences stand within": "GGGAGUUCUACAGUCCGACGAUC … CAACAGAGGAUUGAGCAUCA", "UniProt Q9C0B0, sequence (30-357, looked up)": "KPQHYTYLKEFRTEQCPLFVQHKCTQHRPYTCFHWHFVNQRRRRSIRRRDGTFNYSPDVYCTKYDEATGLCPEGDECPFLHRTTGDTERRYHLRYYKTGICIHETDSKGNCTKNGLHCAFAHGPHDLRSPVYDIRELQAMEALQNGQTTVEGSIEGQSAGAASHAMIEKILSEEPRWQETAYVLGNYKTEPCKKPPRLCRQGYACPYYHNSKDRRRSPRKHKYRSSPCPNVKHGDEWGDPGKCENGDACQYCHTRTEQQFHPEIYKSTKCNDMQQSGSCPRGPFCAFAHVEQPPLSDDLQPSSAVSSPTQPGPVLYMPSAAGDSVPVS"}
{"Oligonucleotide": "GAUAAGAAAAGCUUGUUGGAGACCCGCUUGCACAUCACUGGUAGAGACCUGAGGUGUCAAAUAGCUGAAACUUUCGGAUUUCAAGAAAAUUAUAUCAAGAUCGUAAUAAAUAAGAAACAG", "bound/input enrichment [ratio]": 0.656}
{"Oligonucleotide": "CAGUCCCCGUGUCCCAGUGCAGGACGAUGUGAACAAAAACUCAAAGCGGACCCUCUACUGUAGUUGAUGAUUCUCGAAAUGUGCUAUUAUUGUUUGUCUUUUUUUUUUUUUUUUUAAAGA", "bound/input enrichment [ratio]": 0.765}
{"Oligonucleotide": "AAAGAACCUCUCUCUGAUGAAGAUGAGGACAGUGAUGAUGAUGUUGAACCUAUUACUGAAUUUCGAUUUGUGCCCAGUGAUAAGUCAGCAUUGGAGGCGAUGUUCACAGCAAUGUGUGAG", "bound/input enrichment [ratio]": 0.267}
{"Oligonucleotide": "CAGCGCCGAGGCCGCGGUUUCCCCCUGGGCCUCCCCAGCCGCCGCCAUGGGCAUCAAAUUUUUAGAAGUUAUUAAACCAUUCUGUGCAGUUCUACCAGAAAUUCAGAAACCGGAAAGGAA", "bound/input enrichment [ratio]": 5.96}
{"Oligonucleotide": "GCACUUCUCAAAUACUGGCCAAAGACUCACAGUCCAAAAGAAGUAAUGUUCUUAAACGAAUUAGAAGAAAUUUUAGAUGUAAUUGAACCAUCAGAAUUUGUGAAGAUCAUGGAGCCUCUU", "bound/input enrichment [ratio]": 0.915}
{"Oligonucleotide": "UGUGAACUGUCUCUUGAGAUCUAAAAACAAGAUGACUUUUCCUGGCACAUAUUUCAAAGCAAAGACUUUGUUACCUGCUGCUUAUUGUCUAAUUUACAGGGAUAUUUAAUUUUGUCAGGU", "bound/input enrichment [ratio]": 0.162}
{"Oligonucleotide": "CCACCAGGAUCCCAGAAACAUGACCCUUGCUGCCUACAAAGAGAAGAUGAAGGAGCUCCCGCUGGUGUCCUUGUUCUGCUCCUGCUUCCUGGCCGAUCCCCUGAAUAAGUCGUCCUACAA", "bound/input enrichment [ratio]": 0.224}
{"Oligonucleotide": "ACCAUUUUCGCGGUUCAGGCUUUGUGUGUAGUUCACUUACGGUAUUAAAUUAUUAUUCUGCUUAGCUUAUAAUAAGGAUUACAAUUGUUAAAGAGGUUACUGAAUGUUGUUAUUGUUCUU", "bound/input enrichment [ratio]": 1.08}
{"data": "Block 4", "target": "Centromere-binding protein 1, full length, N-terminal tag (CBF1, Saccharomyces cerevisiae, UniProt P17106, residues 1-351)", "technique": "protein-binding microarray", "molecule type": "double-stranded DNA, one strand shown", "sample": "in vitro", "concentration": "0.8 µM", "notes": "whole 60-bp probe, no competitor", "reading": "higher = stronger binding", "all sequences stand within": "… GTCTTGATTCGCTTGACGCTGCTG", "UniProt P17106, sequence (whole entry, looked up)": "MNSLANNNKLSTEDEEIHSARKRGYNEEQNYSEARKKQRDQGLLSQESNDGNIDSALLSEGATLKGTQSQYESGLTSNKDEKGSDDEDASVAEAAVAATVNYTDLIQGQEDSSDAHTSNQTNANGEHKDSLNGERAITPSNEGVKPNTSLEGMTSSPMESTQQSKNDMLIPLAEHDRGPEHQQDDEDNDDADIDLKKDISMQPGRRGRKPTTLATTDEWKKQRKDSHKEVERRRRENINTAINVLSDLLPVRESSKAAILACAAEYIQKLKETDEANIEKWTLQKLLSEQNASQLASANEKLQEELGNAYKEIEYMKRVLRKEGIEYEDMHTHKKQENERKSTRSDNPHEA"}
{"Oligonucleotide": "CTACATACTTTCATTGTCGTGATTCTTTAGGCATTC", "fluorescence intensity": "611 a.u."}
{"Oligonucleotide": "GAACAACTGGTTTATATCGTGAGTTCTTGGCAGTAG", "fluorescence intensity": "569 a.u."}
{"Oligonucleotide": "GAACTTTTTACACCACATGTGATAGTATACTACTAG", "fluorescence intensity": "1790 a.u."}
{"Oligonucleotide": "GAAGCATGTTCTCAGCACGTTTTGAAGTGGCTATAG", "fluorescence intensity": "639 a.u."}
{"Oligonucleotide": "TGTACGAAGCTATCTAGCGTGGTTATAGTAGTTAGG", "fluorescence intensity": "553 a.u."}
{"Oligonucleotide": "CTAGGTTGCTTCAGGCATGTGCCTGGGAAATGATTC", "fluorescence intensity": "875 a.u."}
{"Oligonucleotide": "GAAATACTTTATTGTCATGAGACCACTCAACAGTAG", "fluorescence intensity": "906 a.u."}
{"Oligonucleotide": "CTATGTTTTCTTTGCCACGTTTTTTCGTGAGCTTTC", "fluorescence intensity": "699 a.u."}
{"Oligonucleotide": "CTAGGTTCATCTTCTGATGTTATGTCGAGAGCTTTC", "fluorescence intensity": "532 a.u."}
{"Oligonucleotide": "GAAGATATTGAATCACATGGGATTTCAGATTTCTAG", "fluorescence intensity": "1750 a.u."}
{"Oligonucleotide": "GAATTTAGTGTAAAAAAGGTGATGATAATTTATTAG", "fluorescence intensity": "535 a.u."}
{"Oligonucleotide": "GAATAGCCGGTTAAGCACGTTGATATTGTTCTTTAG", "fluorescence intensity": "566 a.u."}
{"Oligonucleotide": "CTAACACAAAGTAGTGATGACCCACTCAGGTGTTTC", "fluorescence intensity": "539 a.u."}
{"Oligonucleotide": "CTAACCCTAGTTCATCAGGTTGAAGAAGTATTATTC", "fluorescence intensity": "530 a.u."}
{"Oligonucleotide": "CTAGCGATGAATTTTTGGGTGATGAATGAAACATTC", "fluorescence intensity": "497 a.u."}
{"Oligonucleotide": "CCTAACTACTATAATCATGTGTTATAGCTTCGTACA", "fluorescence intensity": "888 a.u."}
{"Oligonucleotide": "CTACAATCACCGTGTCACCCAAATCGATAATGTTTC", "fluorescence intensity": "554 a.u."}
{"Oligonucleotide": "GAATGAACGGTTGGTCAGGAGAACGAAGAAGTTTAG", "fluorescence intensity": "559 a.u."}
{"Oligonucleotide": "CTAGAGACATGATCGGTCGTGATTATCTTGTTGTTC", "fluorescence intensity": "594 a.u."}
{"note": "Excerpt of the above (block 1):"}
{"Oligonucleotide": "CACACGGA", "E-score": -0.16}
{"Oligonucleotide": "AGTAAGAG", "E-score": 0.0157}
{"Oligonucleotide": "AACTCCTG", "E-score": -0.0815}
{"Oligonucleotide": "AAACTCGC", "E-score": -0.0906}
{"Oligonucleotide": "CCATCCAC", "E-score": -0.184}
{"Oligonucleotide": "AGAGTAAC", "E-score": -0.111}
{"Oligonucleotide": "AGCCGACA", "E-score": -0.23}
{"Oligonucleotide": "TGCAGTAA", "E-score": 0.111}
